# Assay results collected from several papers.
# Protocols differ between the studies behind these lines. Numbers after ± are the reported error.
Structure (SMILES),cell line,assay,conditions,IC50
CC1=CC(C)=[N+]2C1=Cc1ccc(CCC(=O)NCC3C[NH][Pt]([Cl])([Cl])[NH]3)n1[B-]2(F)F (stereo not shown),KB-3-1,"cell viability, CellTiter-Glo","72 h, DMSO solvent",392 ± 35.2 µM
CNC(=O)c1cc(Oc2ccc(NC(=O)c3cc(-c4cccc(OC(=O)CCC(=O)OC5OC6OC7(C)CCC8C(C)CCC(C5C)C68OO7)c4)ccn3)cc2)ccn1 (stereo not shown),L02,"cell growth or viability, MTT",72 h,44.1 µM
O=C(Nc1ccc(Br)cc1)c1cc(Br)cc(Br)c1O,NIH3T3,"cell growth or viability, resazurin",72 h,11.5 µM
CC[C@H]1OC(=O)[C@H](C(C)C)NC(=O)[C@H](C)OC(=O)[C@@H](C(C)C)NC(=O)[C@@H](C(C)C)OC(=O)[C@H](C(C)C)NC(=O)[C@H](C)OC(=O)[C@@H](C(C)C)NC(=O)[C@@H](C(C)C)OC(=O)[C@H](C(C)C)NC(=O)[C@H](C)OC(=O)[C@@H](C(C)C)NC1=O,SHG-44,"cell growth or viability, SRB",72 h,0.3 µM
CCN1CC2(COC)CCC(OC)C34C5CC6C(OC)CC(C5C6O)C(C(OC)C23)C14 (stereo not shown),HBE,"cell growth or viability, MTT",,21.2 µM
CC[C@@]12CC[C@@H]3N(C)c4ccccc4[C@@]34CCN(C[C@H]3O[C@H]31)[C@@H]24,BV-2,"cell growth or viability, MTT",,> 100 µM
COc1ccc(/C=C/C(=O)CC(=O)/C=C/c2ccc(OC)c(OC)c2)cc1OC,LN-229,"cell growth or viability, MTS",24 h,19 µM
O=C(c1ccccc1O)c1[nH]c(Cl)c(Cl)c1-n1c(C(=O)c2ccccc2O)cc(Cl)c1Cl,MRC5,"cell growth or viability, resazurin",24 h,1.7 µg/mL
O=C1CC2(C1)C(=O)[O][Pt]1([Cl])([O]C(=O)C(F)(F)F)([NH][C@@H]3CCCC[C@H]3[NH]1)[O]C2=O,HUVEC,"cell growth or viability, MTT",,> 200 µM
C[C@H]1C(OCCCCCC[P+](c2ccccc2)(c2ccccc2)c2ccccc2)O[C@@H]2O[C@@]3(C)CCC4[C@H](C)CCC1[C@]42OO3 (stereo partly shown),J82,"cell growth or viability, MTT",72 h,0.17 µM
CNC(=O)C(NC(=O)c1ccccc1-c1ccc(C(F)(F)F)cc1)c1cccc(C(F)(F)F)c1 (stereo not shown),KHYG-1 with Ba/F3-MICA cells,"NKG2D-mediated cell killing, inhibitor",6 h,~40 µM
C1N2CN3CN1CP(C2)C3.CC(C)OC(=O)C(n1cccn1)n1cccn1.F[P-](F)(F)(F)(F)F.[Cu+],BCPAP,"cell growth or viability, MTT",72 h,46.5 µM
CN(C)C(=O)[C@H]1NC(=O)c2cnccc2-c2ccc(cc2)C(F)(F)CCCC(F)(F)c2cccc1c2,KHYG-1 with Ba/F3-MICA cells,"NKG2D-mediated cell killing, inhibitor",6 h,1.6 ± 0.2 µM
CCN1CC2(COC)CCC(OC)C34C5CC6C(OC)CC(O)(C5C6OC(=O)c5ccccc5)C(C(OC)C23)C14 (stereo not shown),NCI-H460,"cell growth or viability, MTT",,15.7 µM
C[C@H]1[C@H](OC(=O)CCC(=O)OCCc2ccc(O)cc2)O[C@@H]2O[C@@]3(C)CC[C@H]4[C@H](C)CC[C@@H]1[C@@]24OO3,C3PV,"cell growth or viability, MTT",24 h,132 µM
COC(=O)CC[C@@H](NC(=O)[C@@H](Cc1ccc(OP(=O)(O)O)cc1)NC(=O)[C@@H](Cc1ccccc1)NC(=O)[C@@H](Cc1ccccc1)NC(=O)Cc1ccc2ccccc2c1)C(=O)OC,OVSAHO,cell viability,day 3 (72 h),< 20 µM
[Cl][Au].[Se]=c1n(C2CCCCC2)ccn1C1CCCCC1,LoVo,"cell growth or viability, MTT",72 h,2.6 µM
C[C@H]1C(OCCCC[P+](c2ccccc2)(c2ccccc2)c2ccccc2)O[C@@H]2O[C@@]3(C)CCC4[C@H](C)CCC1[C@]42OO3 (stereo partly shown),HUVEC,"cell viability, MTT",72 h,0.495 ± 0.0387 µM
C=C1C2CC3(C1O)C1CC4C5(C)CCC(O)C4(C1N(CC)C5)C3CC2O (stereo not shown),NCI-H460,"cell growth or viability, MTT",,20.9 µM
O=C(Cc1ccc2ccccc2c1)N[C@H](Cc1ccccc1)C(=O)N[C@H](Cc1ccccc1)C(=O)N[C@H](Cc1ccc(OP(=O)(O)O)cc1)C(=O)N[C@H](Cc1ccc(OP(=O)(O)O)cc1)C(=O)O,T98G,"cell growth or viability, MTT",,357 µg/mL
CN(C)CC1C(=O)OC2C1CCC1(C)CC1CCC1(C)OC21 (stereo not shown),GBM6,"cell growth or viability, resazurin",,3.2 µM
F[P-](F)(F)(F)(F)F.OCP(CO)CO.OCP(CO)CO.OCP(CO)CO.OCP(CO)CO.[Cu+],MRC5,"cell growth or viability, MTT",72 h,32.7 µM
COc1cc(OC)cc(C2=C3c4ccccc4C(c4ccc(NC(=S)NCCOCCOCCOCCC(=O)N[C@@H](CC(C)C)C(=O)N[C@@H](C)C(=O)N[C@@H](CCCNC(=N)N)C(=O)N[C@@H](CC(C)C)C(=O)N[C@@H](CC(C)C)C(=O)N[C@H](C(N)=O)[C@@H](C)O)cc4)=[N+]3[B-](F)(F)n3c2c2ccccc2c3-c2ccc(NC(=S)NCCNC(=O)CCCC[C@@H]3SC[C@@H]4NC(=O)N[C@@H]43)cc2)c1,HT-29,dark toxicity,,159 µM
C[C@@H](O)[C@H](NC(=O)[C@H](CCCNC(=N)N)NC(=O)[C@H](CCCNC(=N)N)NC(=O)[C@H](CCCNC(=N)N)NC(=O)[C@@H]1CCCN1C(=O)[C@@H](N)CO)C(=O)N1CCC[C@H]1C(=O)N[C@@H](CO)C(=O)N1CCC[C@H]1C(=O)N[C@@H](CCCNC(=N)N)C(=O)N[C@@H](CCCNC(=N)N)C(=O)N[C@@H](CCCNC(=N)N)C(=O)N[C@@H](CCCNC(=N)N)C(=O)N[C@@H](CO)C(=O)N[C@@H](CCC(N)=O)C(=O)N[C@@H](CO)C(=O)N1CCC[C@H]1C(=O)N[C@@H](CCCNC(=N)N)C(=O)N[C@@H](CCCNC(=N)N)C(=O)N[C@@H](CCCNC(=N)N)C(N)=O,BT-474,"cell viability, CellTiter-Blue","24 h, serum-free medium",> 100 µM
CC(C)c1cccc(C(C)C)c1-n1c[n+](-c2c(C(C)C)cccc2C(C)C)c2c1-c1cccc3cccc-2c13.[Cl][Pd-]([Cl])[CH2]C=Cc1ccccc1,NTERA2,"cell growth or viability, MTT",72 h,2 µM
C[C@H]1C(OCCCCCCCCCC[P+](c2ccccc2)(c2ccccc2)c2ccccc2)O[C@@H]2O[C@@]3(C)CCC4[C@H](C)CCC1[C@]42OO3 (stereo partly shown),J82,"cell growth or viability, MTT",72 h,0.0868 µM
CCOC(=O)[C@H]1Cc2c(cc([N+](=O)[O-])cc2[N+](=O)[O-])[C@@H](O)[C@@]12C(=O)Nc1ccccc12,T98G,"cell growth or viability, MTT",24 h,62.4 µM
CC(C)C[C@H](NC(=O)[C@@H](CCCNC(=N)N)NC(=O)[C@H](Cc1c[nH]cn1)NC(=O)[C@H](CO)NC(=O)[C@H](Cc1c[nH]c2ccccc12)NC(=O)[C@H](Cc1c[nH]cn1)NC(=O)[C@@H]1CCC(=O)N1)C(=O)N[C@@H](CCCNC(=N)N)C(=O)N1CCC[C@H]1C(=O)NCC(N)=O,WPE-1-NB26-3,"cell growth, inhibitor, sulforhodamine B staining",four days,0.0209 ± 0.0118 µM
COCC12CCC(OC)C34C5CC6(O)C(OC)C(O)C(O)(C5C6OC(=O)c5ccccc5)C(C(OC)C13)C4N(C)C2 (stereo not shown),HBE,"cell growth or viability, MTT",,30.7 µM
CNC(=O)c1cc(Oc2ccc(NC(=O)c3ccc(-c4ccc(OC(=O)CCC(=O)OC5OC6OC7(C)CCC8C(C)CCC(C5C)C68OO7)cc4)cn3)cc2)ccn1 (stereo not shown),L02,"cell growth or viability, MTT",72 h,46 µM
COCC12CN(C)C3C4C(OC)C1C3(C(OC)CC2O)C1CC2(O)C(OC)C(O)C4(O)C1C2OC(=O)c1ccccc1 (stereo not shown),NCI-H460,"cell growth or viability, MTT",,22.3 µM
O=C1C(Cl)=C(Cl)C(=O)c2ccccc21,HuCC-A1,"cell growth or viability, MTT",,34.7 µM
CCN1CC2(COC)CCC(O)C34C5CC6C(OC)CC(O)(C(CC23)C14)C5C6O (stereo not shown),NCI-H460,"cell growth or viability, MTT",,12.2 µM
CNC(=O)c1cc(Oc2ccc(NC(=O)c3cc(-c4ccc(OC(=O)CCC(=O)OC5OC6OC7(C)CCC8C(C)CCC(C5C)C68OO7)cc4)ccn3)cc2)ccn1 (stereo not shown),L02,"cell growth or viability, MTT",72 h,37.8 µM
CCOC12C(O)C(OC)C3(O)CC(C1C3OC(=O)c1ccccc1)C13C(OC)CCC4(COC)CN(CC)C1C2C(OC)C43 (stereo not shown),HBE,"cell growth or viability, MTT",,50.1 µM
C[C@H]1C(OCCCCCCCC[P+](c2ccccc2)(c2ccccc2)c2ccccc2)O[C@@H]2O[C@@]3(C)CCC4[C@H](C)CCC1[C@]42OO3 (stereo partly shown),HUVEC,"cell viability, MTT",72 h,0.252 ± 0.0311 µM
CCN1CC2(COC)CCC(OC)C34C5CC6C(OC)CC(O)(C(CC23)C14)C5C6OC(=O)c1ccccc1 (stereo not shown),NCI-H460,"cell growth or viability, MTT",,23.4 µM
Cc1cc(O)cc(-c2nc(Nc3cc(C(F)(F)F)cc(C(F)(F)F)c3)ncc2-c2ccnc(Cl)c2)c1,HT-29,,72 h,7.5 ± 0.5 µM
CC(C)C12OC1C1OC13C1(C)CCC4=C(COC4=O)C1CC1OC13C2OC(=O)CCCOC1OC(CO)C(O)C(O)C1O (stereo not shown),DLD-1 GLUT1 knockout,cell growth,1% oxygen hypoxia,2.5 µM
OC[C@H]1[C@@H](O)[C@@H](O)CN1Cc1ccccc1,U2OS,"cell growth or viability, MTS",72 h,> 200 µM
[Cl][Au-][P+](c1ccccc1)(c1ccccc1)c1cc[cH-]c1.[Cl][Au-][P+](c1ccccc1)(c1ccccc1)c1cc[cH-]c1.[Cl][Ti+2][Cl],A498,"cell growth or viability, XTT",,16.3 µM
Cc1cc(C)c(N2CCN(c3c(C)cc(C)cc3C)C2=[Se])c(C)c1.[Cl][Ag],human ovarian cancer cells,"cell viability, MTT",72 h,1.6 ± 0.4 µM
CCCN1CCNC1=[S+][Ag-3]([O][N+](=O)[O-])([P+](c1ccccc1)(c1ccccc1)c1ccccc1)[P+](c1ccccc1)(c1ccccc1)c1ccccc1,MG-63,MTT,24 h,6.42 µM

# Repeated from above:
Structure (SMILES),cell line,assay,conditions,IC50
COc1cc(OC)cc(C2=C3c4ccccc4C(c4ccc(NC(=S)NCCOCCOCCOCCC(=O)N[C@@H](CC(C)C)C(=O)N[C@@H](C)C(=O)N[C@@H](CCCNC(=N)N)C(=O)N[C@@H](CC(C)C)C(=O)N[C@@H](CC(C)C)C(=O)N[C@H](C(N)=O)[C@@H](C)O)cc4)=[N+]3[B-](F)(F)n3c2c2ccccc2c3-c2ccc(NC(=S)NCCNC(=O)CCCC[C@@H]3SC[C@@H]4NC(=O)N[C@@H]43)cc2)c1,HT-29,dark toxicity,,159 µM
C1N2CN3CN1CP(C2)C3.CC(C)OC(=O)C(n1cccn1)n1cccn1.F[P-](F)(F)(F)(F)F.[Cu+],BCPAP,"cell growth or viability, MTT",72 h,46.5 µM
[Cl][Au].[Se]=c1n(C2CCCCC2)ccn1C1CCCCC1,LoVo,"cell growth or viability, MTT",72 h,2.6 µM
F[P-](F)(F)(F)(F)F.OCP(CO)CO.OCP(CO)CO.OCP(CO)CO.OCP(CO)CO.[Cu+],MRC5,"cell growth or viability, MTT",72 h,32.7 µM
Cc1cc(C)c(N2CCN(c3c(C)cc(C)cc3C)C2=[Se])c(C)c1.[Cl][Ag],human ovarian cancer cells,"cell viability, MTT",72 h,1.6 ± 0.4 µM
